Published values gathered from unrelated publications.
A part holds a random share of what one study measured.
UniProt Q9Y6R4, sequence (whole entry, looked up): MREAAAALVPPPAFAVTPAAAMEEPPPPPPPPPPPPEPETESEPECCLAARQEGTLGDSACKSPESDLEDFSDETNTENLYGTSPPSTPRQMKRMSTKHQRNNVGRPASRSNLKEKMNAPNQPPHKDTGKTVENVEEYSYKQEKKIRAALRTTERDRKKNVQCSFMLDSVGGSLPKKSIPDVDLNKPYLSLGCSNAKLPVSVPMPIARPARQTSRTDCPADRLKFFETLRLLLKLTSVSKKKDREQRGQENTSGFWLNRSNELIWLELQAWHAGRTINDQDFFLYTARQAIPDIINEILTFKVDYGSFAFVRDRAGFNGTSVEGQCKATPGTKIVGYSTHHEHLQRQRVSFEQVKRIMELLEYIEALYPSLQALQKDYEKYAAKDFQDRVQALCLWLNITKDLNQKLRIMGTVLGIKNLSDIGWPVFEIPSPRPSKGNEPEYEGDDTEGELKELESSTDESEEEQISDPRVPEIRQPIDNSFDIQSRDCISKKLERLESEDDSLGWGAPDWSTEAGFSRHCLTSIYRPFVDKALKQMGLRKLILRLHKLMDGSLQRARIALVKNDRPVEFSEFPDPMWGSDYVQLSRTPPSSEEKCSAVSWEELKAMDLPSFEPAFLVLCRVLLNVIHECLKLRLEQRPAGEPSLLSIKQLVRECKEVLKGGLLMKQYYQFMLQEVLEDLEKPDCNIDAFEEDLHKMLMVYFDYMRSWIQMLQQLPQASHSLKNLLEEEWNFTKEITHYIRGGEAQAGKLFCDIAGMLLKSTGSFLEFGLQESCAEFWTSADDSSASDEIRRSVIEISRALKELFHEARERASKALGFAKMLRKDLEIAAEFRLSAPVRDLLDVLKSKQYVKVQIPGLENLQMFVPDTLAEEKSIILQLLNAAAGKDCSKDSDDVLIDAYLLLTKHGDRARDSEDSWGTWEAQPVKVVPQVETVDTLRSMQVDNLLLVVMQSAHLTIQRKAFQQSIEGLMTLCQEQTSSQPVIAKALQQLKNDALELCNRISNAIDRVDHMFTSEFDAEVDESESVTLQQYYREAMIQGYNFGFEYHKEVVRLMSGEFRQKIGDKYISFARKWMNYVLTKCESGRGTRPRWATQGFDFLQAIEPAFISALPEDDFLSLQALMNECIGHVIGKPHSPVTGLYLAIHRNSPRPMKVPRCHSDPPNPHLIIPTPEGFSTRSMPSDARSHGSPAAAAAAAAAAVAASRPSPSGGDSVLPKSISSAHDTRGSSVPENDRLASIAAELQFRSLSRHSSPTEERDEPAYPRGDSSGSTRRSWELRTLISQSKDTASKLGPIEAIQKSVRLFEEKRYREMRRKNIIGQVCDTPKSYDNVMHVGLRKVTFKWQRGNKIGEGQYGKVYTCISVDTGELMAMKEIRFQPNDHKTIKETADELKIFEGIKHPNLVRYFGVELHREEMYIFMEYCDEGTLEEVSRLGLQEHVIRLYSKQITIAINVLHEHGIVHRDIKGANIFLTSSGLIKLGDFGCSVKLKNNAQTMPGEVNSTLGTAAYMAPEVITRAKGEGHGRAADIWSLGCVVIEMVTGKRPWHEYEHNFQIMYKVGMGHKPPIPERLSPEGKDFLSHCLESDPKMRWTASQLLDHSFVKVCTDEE
UniProt Q9Y2U5, sequence (whole entry, looked up): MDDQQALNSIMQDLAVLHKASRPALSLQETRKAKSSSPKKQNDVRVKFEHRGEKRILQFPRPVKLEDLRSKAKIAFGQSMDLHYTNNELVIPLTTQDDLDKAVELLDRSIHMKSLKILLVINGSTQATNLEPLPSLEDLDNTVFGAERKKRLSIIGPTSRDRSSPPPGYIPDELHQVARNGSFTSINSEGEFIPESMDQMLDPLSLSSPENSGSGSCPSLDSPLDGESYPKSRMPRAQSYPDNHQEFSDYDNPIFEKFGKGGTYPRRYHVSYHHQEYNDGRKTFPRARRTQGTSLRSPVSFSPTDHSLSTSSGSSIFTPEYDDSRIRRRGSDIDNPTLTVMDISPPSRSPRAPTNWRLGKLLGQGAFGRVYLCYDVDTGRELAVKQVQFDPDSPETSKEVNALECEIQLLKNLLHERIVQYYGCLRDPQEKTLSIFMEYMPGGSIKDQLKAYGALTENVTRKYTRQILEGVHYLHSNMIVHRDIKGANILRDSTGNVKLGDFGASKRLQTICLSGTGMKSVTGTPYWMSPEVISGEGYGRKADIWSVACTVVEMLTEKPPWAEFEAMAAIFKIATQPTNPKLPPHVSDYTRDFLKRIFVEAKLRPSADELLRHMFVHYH
UniProt P42338, sequence (whole entry, looked up): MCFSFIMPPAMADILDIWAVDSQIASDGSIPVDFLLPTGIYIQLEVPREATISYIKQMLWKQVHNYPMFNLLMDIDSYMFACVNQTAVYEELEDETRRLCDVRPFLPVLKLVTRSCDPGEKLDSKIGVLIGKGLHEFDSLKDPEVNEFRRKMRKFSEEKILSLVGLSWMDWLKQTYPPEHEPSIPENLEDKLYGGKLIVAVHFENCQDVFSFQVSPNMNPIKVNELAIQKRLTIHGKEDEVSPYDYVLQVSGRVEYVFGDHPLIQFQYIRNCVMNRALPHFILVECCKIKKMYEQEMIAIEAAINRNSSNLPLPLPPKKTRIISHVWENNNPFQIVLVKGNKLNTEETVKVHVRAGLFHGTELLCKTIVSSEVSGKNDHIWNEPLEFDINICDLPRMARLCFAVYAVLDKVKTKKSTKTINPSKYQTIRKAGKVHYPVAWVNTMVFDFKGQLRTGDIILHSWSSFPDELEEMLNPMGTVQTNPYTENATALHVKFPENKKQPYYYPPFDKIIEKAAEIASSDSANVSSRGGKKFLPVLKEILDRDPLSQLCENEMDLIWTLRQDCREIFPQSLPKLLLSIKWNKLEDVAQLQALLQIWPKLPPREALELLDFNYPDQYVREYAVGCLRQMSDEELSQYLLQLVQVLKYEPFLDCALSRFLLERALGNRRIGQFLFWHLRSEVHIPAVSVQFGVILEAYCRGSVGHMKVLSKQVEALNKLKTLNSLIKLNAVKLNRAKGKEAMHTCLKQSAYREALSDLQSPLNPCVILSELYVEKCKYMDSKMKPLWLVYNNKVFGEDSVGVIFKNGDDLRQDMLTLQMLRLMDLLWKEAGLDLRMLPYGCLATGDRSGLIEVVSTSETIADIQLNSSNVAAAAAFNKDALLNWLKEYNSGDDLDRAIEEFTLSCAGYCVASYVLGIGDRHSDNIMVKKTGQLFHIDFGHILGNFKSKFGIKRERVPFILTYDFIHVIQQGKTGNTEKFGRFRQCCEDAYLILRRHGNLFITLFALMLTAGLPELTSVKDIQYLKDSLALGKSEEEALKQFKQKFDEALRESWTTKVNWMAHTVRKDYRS
UniProt P48729, sequence (whole entry, looked up): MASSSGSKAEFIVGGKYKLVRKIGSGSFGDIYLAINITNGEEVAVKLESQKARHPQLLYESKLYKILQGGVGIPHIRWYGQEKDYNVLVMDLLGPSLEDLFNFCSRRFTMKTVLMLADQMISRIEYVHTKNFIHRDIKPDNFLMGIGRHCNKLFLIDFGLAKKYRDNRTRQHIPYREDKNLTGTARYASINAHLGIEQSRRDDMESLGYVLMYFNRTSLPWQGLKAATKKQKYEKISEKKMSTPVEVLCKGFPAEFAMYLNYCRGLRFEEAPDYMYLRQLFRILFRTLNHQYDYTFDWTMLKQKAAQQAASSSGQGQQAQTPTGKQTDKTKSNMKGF

Study 1 — read-out: cell-free assay; method: competition with immobilised ligand; concentration: 0.1 µM
Structure (SMILES): CNC(=O)c1ccc(Nc2ncc(C(F)(F)F)c(NCc3nccnc3N(C)S(C)(=O)=O)n2)cc1
Tyrosine-protein kinase ABL1, phosphorylated (ABL1, Homo sapiens, UniProt P00519) — remaining binding: 100%.
Death-associated protein kinase 2 (DAPK2, Homo sapiens, UniProt Q9UIK4) — remaining binding: 68%.
Casein kinase I isoform alpha (CSNK1A1, Homo sapiens, UniProt P48729) — remaining binding: 94%.
The remaining binding was 94% (Membrane-associated tyrosine- and threonine-specific cdc2-inhibitory kinase (PKMYT1, Homo sapiens, UniProt Q99640)).
Serine/threonine-protein kinase tousled-like 2 (TLK2, Homo sapiens, UniProt Q86UE8) — remaining binding: 90%.
The remaining binding was 100% (Serine/threonine-protein kinase RIO1 (RIOK1, Homo sapiens, UniProt Q9BRS2)).
For Cyclin-dependent kinase 16 (CDK16, Homo sapiens, UniProt Q00536): remaining binding read 99%.
For Serine/threonine-protein kinase ULK3 (ULK3, Homo sapiens, UniProt Q6PHR2): remaining binding read 75%.
The remaining binding was 99% (Epidermal growth factor receptor (EGFR, Homo sapiens, UniProt P00533, T790M)).
For Epidermal growth factor receptor (EGFR, Homo sapiens, UniProt P00533, G719S): remaining binding read 92%.
Receptor-type tyrosine-protein kinase FLT3 (FLT3, Homo sapiens, UniProt P36888) — remaining binding: 46%.
It gave 100% for remaining binding (Mitogen-activated protein kinase kinase kinase 4 (MAP3K4, Homo sapiens, UniProt Q9Y6R4)).
The remaining binding was 100% (Calcium/calmodulin-dependent protein kinase type 1 (CAMK1, Homo sapiens, UniProt Q14012)).
Phosphatidylinositol 4,5-bisphosphate 3-kinase catalytic subunit beta isoform (PIK3CB, Homo sapiens, UniProt P42338) — remaining binding: 45%.
Inhibitor of nuclear factor kappa-B kinase subunit epsilon (IKBKE, Homo sapiens, UniProt Q14164) — remaining binding: 99%.
1-phosphatidylinositol 3-phosphate 5-kinase (PIKFYVE, Homo sapiens, UniProt Q9Y2I7) — remaining binding: 100%.
The remaining binding was 100% (Macrophage colony-stimulating factor 1 receptor (CSF1R, Homo sapiens, UniProt P07333)).
cGMP-dependent protein kinase 1 (PRKG1, Homo sapiens, UniProt Q13976) — remaining binding: 100%.
The remaining binding was 100% (Tyrosine-protein kinase ABL1, phosphorylated (ABL1, Homo sapiens, UniProt P00519, Y253F)).
Receptor-type tyrosine-protein kinase FLT3, autoinhibited (FLT3, Homo sapiens, UniProt P36888) — remaining binding: 74%.
The remaining binding was 100% (Microtubule-associated serine/threonine-protein kinase 1 (MAST1, Homo sapiens, UniProt Q9Y2H9)).
It gave 60% for remaining binding (Leucine-rich repeat serine/threonine-protein kinase 2 (LRRK2, Homo sapiens, UniProt Q5S007)).
The remaining binding was 65% (Mitogen-activated protein kinase kinase kinase 2 (MAP3K2, Homo sapiens, UniProt Q9Y2U5)).
The remaining binding was 100% (Serine/threonine-protein kinase 32C (STK32C, Homo sapiens, UniProt Q86UX6)).
It gave 79% for remaining binding (Calcium/calmodulin-dependent protein kinase type II subunit gamma (CAMK2G, Homo sapiens, UniProt Q13555)).

Study 2 — read-out: enzyme activity; concentration: 5 µM; baseline: untreated control
SMILES: O=C(Nc1cnn(-c2csc(C(=O)NC3COC3)c2)c1)Nc1ccccc1Cl
Ephrin type-A receptor 5 (EPHA5, Homo sapiens, UniProt P54756) — remaining activity: 93.9%.
For Serine/threonine-protein kinase haspin (HASPIN, Homo sapiens, UniProt Q8TF76): remaining activity read 110%.
For Casein kinase I isoform gamma-2 (CSNK1G2, Homo sapiens, UniProt P78368): remaining activity read 94.2%.
For Calcium/calmodulin-dependent protein kinase type 1D (CAMK1D, Homo sapiens, UniProt Q8IU85): remaining activity read 101%.
For Protein kinase C iota type (PRKCI, Homo sapiens, UniProt P41743): remaining activity read 94.2%.
The remaining activity was 96.7% (Tyrosine-protein kinase FRK (FRK, Homo sapiens, UniProt P42685)).

Study 3 — method: PRP chromatography estimate; medium: 1,9-decadiene/PBS; pH: 7.4
With `CC(C)C[C@@H]1NC(=O)[C@@H](C)NC(=O)[C@H](CCC(=O)N2CCCC2)NC(=O)[C@@H](C(C)C)NC(=O)[C@H](C(C)C)NC(=O)[C@H](CC(C)C)NC(=O)[C@@H](CC(C)C)NC1=O` the logD was -0.989.
`CC(C)C[C@@H]1NC(=O)[C@@H](C)NC(=O)[C@@H](CC(C)C)NC(=O)[C@H](C)NC(=O)[C@H](C(C)C)NC(=O)[C@H](CC(C)C)NC(=O)[C@@H](CC(C)C)NC1=O` has a logD of -0.685.
`CC(C)C[C@@H]1NC(=O)[C@H](CC(C)C)NC(=O)[C@@H](C(C)C)NC(=O)[C@H](C(C)C)NC(=O)[C@H](C)NC(=O)[C@H](Cc2cscn2)NC(=O)[C@H](CCC(=O)N2CCCC2)NC1=O` gave a logD of -2.51.
For `CCC[C@H]1NC(=O)CSC[C@@H](C(=O)OCC)N(C)C(=O)[C@H](CC(C)C)NC(=O)[C@@H](C)N(C)C(=O)[C@H](CC(C)C)NC(=O)[C@H](C)N(C)C(=O)[C@@H]2CCCN2C(=O)[C@@H](CC(C)C)NC(=O)CN(CCC)C1=O`, the logD was 0.311.
For `CC(C)C[C@@H]1NC(=O)[C@@H](C)NC(=O)[C@@H](CC(C)C)NC(=O)[C@H](C)NC(=O)[C@H](C)NC(=O)[C@H](CC(C)C)NC(=O)[C@@H](CC(C)C)NC1=O`, the logD was -1.86.
`CC(C)C[C@@H]1NC(=O)[C@H](CC(C)C)NC(=O)[C@@H](CC(C)C)NC(=O)[C@@H](C(C)C)NC(=O)[C@H](C)NC(=O)[C@H](CC(C)C)NC(=O)[C@@H](CC(C)C)NC1=O` gave a logD of 1.37.

Study 4 — cell line: A-375; concentration: 100 µM; time: 18 h
`C[N+]1(CCCCC[N+]2(C)CCCC2)CCCC1` gave a viability of 91.1%.
`CCCCNC(=O)NS(=O)(=O)c1ccc(C)cc1` has a viability of 90.7%.
`Cc1[nH]c(=O)c(C#N)cc1-c1ccncc1` gave a viability of 88.1%.
`CN1CCC(OC(c2ccccc2)c2ccccc2)CC1` gave a viability of 100%.
With `CS(=O)(=O)c1ccc(C(=O)Nc2ccc(Cl)c(-c3ccccn3)c2)c(Cl)c1` the viability was 86.7%.
The viability of `CC(C)[C@H]1CC[C@H](C(=O)N[C@H](Cc2ccccc2)C(=O)O)CC1` is reported as 86.7%.
The viability of `O=C(C1CCCCC1)N1CC(=O)N2CCc3ccccc3C2C1` (stereo not shown) is reported as 95.4%.
`CCCCC(CC)CN1CN(CC(CC)CCCC)CC(C)(N)C1` (stereo not shown) has a viability of 58.9%.

Study 5 — read-out: enzyme activity; mode: inhibitor; concentration: 10 µM
Target: Calcium/calmodulin-dependent protein kinase type II subunit alpha (CAMK2A, Homo sapiens, UniProt Q9UQM7)
UniProt Q9UQM7, sequence (whole entry, looked up): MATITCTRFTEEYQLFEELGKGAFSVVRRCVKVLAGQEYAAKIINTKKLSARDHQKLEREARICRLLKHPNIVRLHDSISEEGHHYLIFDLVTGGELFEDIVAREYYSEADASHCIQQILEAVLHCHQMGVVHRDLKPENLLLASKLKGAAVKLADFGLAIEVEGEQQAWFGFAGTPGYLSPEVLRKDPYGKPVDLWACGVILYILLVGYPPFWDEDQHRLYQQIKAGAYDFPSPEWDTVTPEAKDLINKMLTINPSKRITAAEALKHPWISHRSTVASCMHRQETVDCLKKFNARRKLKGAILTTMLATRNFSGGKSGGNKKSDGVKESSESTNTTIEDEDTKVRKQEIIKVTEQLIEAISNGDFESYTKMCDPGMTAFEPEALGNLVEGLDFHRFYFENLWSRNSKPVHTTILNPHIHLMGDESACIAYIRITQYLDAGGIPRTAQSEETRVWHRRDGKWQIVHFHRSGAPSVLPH
`O=c1cccc[nH]1` gave an inhibition of 3%.
`Cc1occc(=O)c1O` gave an inhibition of -22%.
`O=C(OCc1ccccc1)c1ccccc1O` gave an inhibition of 14%.
For `COc1c(-c2ccc3cc(NS(C)(=O)=O)ccc3c2)cc(-n2ccc(=O)[nH]c2=O)cc1C(C)(C)C`, the inhibition was 3%.
`C[C@@H]1C[C@@H]([C@@H](O)C(C)(C)O)O[C@H]2C[C@@]3(C)C(=C12)C[C@H](O)[C@H]1[C@@]2(C)CCC(=O)C(C)(C)[C@@H]2CC[C@@]13C` gave an inhibition of 22%.
`COc1cc(OC)cc(OC)c1` gave an inhibition of 4%.
For `CC(C(=O)O)c1ccccc1` (stereo not shown), the inhibition was 16%.
